Experimental data collected from several papers.
A part holds a random share of what one study measured. Changes are numbered by the printed parent chain.

Series 1 — method: RNA Bind-n-Seq; molecule type: RNA; medium: in vitro; tested at: 365 nM; reference: no-protein control; direction: higher = stronger binding
Target: RNA binding protein fox-1 homolog 2, RRM domain, GST-SBP tag (RBFOX2, Homo sapiens, UniProt O43251-10, residues 100-194)
Notes: natural RNA segment, single round, ends assumed
Residues (chain): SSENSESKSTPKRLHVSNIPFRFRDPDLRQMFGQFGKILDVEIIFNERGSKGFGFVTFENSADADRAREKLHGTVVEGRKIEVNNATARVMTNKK
Under “RBNS enrichment (R)”, `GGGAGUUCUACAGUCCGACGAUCCAGGAAAAAUACUACAAGUAAUUGUGGUGGAAAUGUCUGUGUUCCUUGGGAAUGCUGCGCUCUCUGUAGUUUCCAUCAUUGGUGCAGUUCGAACGAAUGAGUAGAGUUCAUGGAAUUCUCGGGUGCCAA` is recorded as 0.343.
For `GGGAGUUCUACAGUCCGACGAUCUGCCAAAGCACUUAAAAUCUCCUUUAAAUUCUUACCAUAUGCUUACUUUUGUACUAAGUAAGUGCUCCCAAGUCUUUUACUUGCUCUUCACAGCAACCCUAAUAGGUAUCUGGAAUUCUCGGGUGCCAA`, “RBNS enrichment (R)” read 0.673.
`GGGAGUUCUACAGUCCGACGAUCCUAGAUUUGACAUUACUUCCUGUAUCAUUUUACUGUAUUUUUGCAUGAUUCCUUGUAUUGCAUUUCUUUGCACAUAUUAUGGGCUUGUGACCCUAAACUUGCAGGCAAGAUGGAAUUCUCGGGUGCCAA`: “RBNS enrichment (R)” 7.02.
`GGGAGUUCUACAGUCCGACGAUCCAAAACUGACCAAGGCUAUUCAGCAGUGAACCAGUGACCAAAGAAUUAAUUACCCUCCGUUUCCCACAUCCCCACUCUCUAGGGGAUUAGCUUGUGCGUGUCAAAAGAAGUGGAAUUCUCGGGUGCCAA` — result for “RBNS enrichment (R)”: 1.08.
`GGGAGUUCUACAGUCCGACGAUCAGGGGCAAGGUACCCGCUGAGGUGUGUGGGCUGACUGGAGGUCCUGGAUCCCCCUACUGCUCCCAGGAAUUGGGCUCCUGACAGCAGUCUGCUACCACAACCCCAGGCGGUGGAAUUCUCGGGUGCCAA` — result for “RBNS enrichment (R)”: 0.566.
Under “RBNS enrichment (R)”, `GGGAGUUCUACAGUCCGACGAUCCUUUCUUUCUAGACUGGAUUAUGCUCACAUGCUCCCUUGCCCUGACAUUUUUGUAAAUUCUGUGCCCUUUGCUGUAGCUACACUUCAGAUUAAAGUAGGAGAAAGAAUGUUGGAAUUCUCGGGUGCCAA` is recorded as 0.196.
For `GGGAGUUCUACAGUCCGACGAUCAGCCUUCAUUUUUAACUCAAAUUGAUGCUCAGUAAAGGUCAAUGACAAUUUGUUCAAGGAAGUUCAUCUAAAAUAAUCUGGAGGCCUUGAAAAUGAUCCCUCUAAAAUGCUGGAAUUCUCGGGUGCCAA`, “RBNS enrichment (R)” read 0.765.
For `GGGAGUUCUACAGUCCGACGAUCAGUGUUUAGGUGUUUGGUCUUGCUUCUUGUAUGGCAUUUUUCAAUAAACUUUAAAAAAAAAAAAAAAGCCUGACUGUGAGGAUUGAUCCACUUUUAAAGUUCUCUUCUAAUGGAAUUCUCGGGUGCCAA`, “RBNS enrichment (R)” read 0.59.

Series 2 — method: RNA Bind-n-Seq; molecule type: RNA; medium: in vitro; tested at: 1 µM; notes: whole 134-nt RNA, ends assumed; together with: 150 mM KCl; reference: input library; direction: higher = stronger binding
Target: Ras GTPase-activating protein-binding protein 1, RRM domain (G3BP1, Homo sapiens, UniProt Q13283)
Sequence of UniProt Q13283 (whole entry, looked up): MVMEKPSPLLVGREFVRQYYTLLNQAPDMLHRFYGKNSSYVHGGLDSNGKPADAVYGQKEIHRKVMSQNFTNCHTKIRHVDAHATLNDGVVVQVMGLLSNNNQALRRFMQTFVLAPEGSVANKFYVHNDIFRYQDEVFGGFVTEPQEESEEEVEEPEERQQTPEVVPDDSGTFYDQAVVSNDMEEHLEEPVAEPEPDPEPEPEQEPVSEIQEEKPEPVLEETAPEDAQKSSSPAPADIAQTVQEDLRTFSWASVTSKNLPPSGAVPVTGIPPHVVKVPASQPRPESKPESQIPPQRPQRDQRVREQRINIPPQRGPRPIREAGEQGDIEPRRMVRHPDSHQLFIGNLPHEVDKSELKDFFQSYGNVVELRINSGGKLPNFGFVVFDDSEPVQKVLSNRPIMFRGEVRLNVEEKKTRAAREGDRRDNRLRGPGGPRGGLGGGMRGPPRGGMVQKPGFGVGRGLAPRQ
The log2 enrichment of `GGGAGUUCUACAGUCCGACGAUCUUUUAUGUGGAGUUAUGAAGACCUACAGGCAGAGAGAGAAACAGGGGAGCAAGGUGCAAGAGUCCACAAAGGGACCUGAUGAAGCGAAGAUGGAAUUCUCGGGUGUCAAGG` is reported as 0.126.
`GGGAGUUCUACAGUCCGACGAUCACCAUGCAGGUGGGCAUCUUUGGGAAGUGGGGCAAGGGGGGGAUAGGGAGGGGGGUAACACUUUGGGAACAGGUGGUCCCAGGUCGUUUCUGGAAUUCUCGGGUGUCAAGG` has a log2 enrichment of -0.574.
For `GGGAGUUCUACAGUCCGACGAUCCUGUGCUACACAUCGUAUGUACCGAAUCGGGGUUUUUUUGGGGUUUGGGGAAAAAAAGGGGAAAGUAUUAUGUUACGCCGUUCGGAUCUGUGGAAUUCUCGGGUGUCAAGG`, the log2 enrichment was 0.561.
For `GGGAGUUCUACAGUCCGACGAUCAAGUCCUGUGCUACACAUCGUAUGUACCGAAUCGGGGCCCCGGGGCCCCGGCCCCGGAAAGUAUUAUGUUACGCCGUUCGGAUCUGCACUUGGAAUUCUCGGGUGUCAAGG`, the log2 enrichment was -0.482.
`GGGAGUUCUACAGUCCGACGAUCUUCUCUCAUUUCUUCUGAAAUACAGGGCAAAUUGGAUCAAGGCAGUUCAGAUGUGUAGCAAACCCAGAGAAUUUGCAUUGGCUUUAGCCAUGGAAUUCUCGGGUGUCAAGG` gave a log2 enrichment of 1.14.
`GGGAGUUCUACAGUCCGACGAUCUCACCUGUUUACAGUGAAUCAGACGUCCCAAUAGAUGUGGAGACGGUCACAUCAACGCCUAUGCCACUCUAUGACAAUCAGAAGGCACGCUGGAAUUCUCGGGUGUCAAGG` has a log2 enrichment of -0.185.
The log2 enrichment of `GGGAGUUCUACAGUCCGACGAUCCUGUGCUACACAUCGUAUGUACCGAAUCGGGGAAAAAGGGGAAAAAAAGGGGUUUUUGGGGAAAGUAUUAUGUUACGCCGUUCGGAUCUGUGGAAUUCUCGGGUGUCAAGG` is reported as 0.958.
`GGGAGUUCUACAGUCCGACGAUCUGGGAGGUGGAUUUUGUUUAUUUUUUUAGCUCAUUUCCAGGGGUGGGAAUUUUCUUUUAAUAUGUGUCAUGAAUAAAGUUGUUUUUGAAAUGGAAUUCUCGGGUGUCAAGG` has a log2 enrichment of 1.77.
With `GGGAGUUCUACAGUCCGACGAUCACCAUGCAGGUGGGCAUCUUUGGGAAGUGGGGCAAGGGGGGGAUAGGGAGGGGGGUAACACUUUGGGAACAGGUGGUCCCAGUUCGUUUCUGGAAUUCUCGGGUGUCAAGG` the log2 enrichment was 0.63.

Series 3 — method: DHFR PCA, dose-response; medium: yeast; notes: Hill fit, mean, not affinity; together with: (+)-ABA, dose series; direction: lower = more sensitive
Target: ABI1, truncated, D143A, DHFR fusion (Arabidopsis thaliana, UniProt P49597)
Parent: PYL1, truncated, DHFR fusion (Arabidopsis thaliana, UniProt Q8VZS8); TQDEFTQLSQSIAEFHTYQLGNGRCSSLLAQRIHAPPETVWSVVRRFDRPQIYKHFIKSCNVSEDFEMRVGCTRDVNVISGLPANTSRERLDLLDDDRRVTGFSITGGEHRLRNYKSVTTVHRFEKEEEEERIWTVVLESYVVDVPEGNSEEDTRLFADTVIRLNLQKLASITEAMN
`P50A` gave an ABA EC50 of 213 µM.
With `G21L` the ABA EC50 was 4.33 µM.
The ABA EC50 of `E147K` is reported as 3.82 µM.
For `E38I`, the ABA EC50 was 82 µM.
`L8G` has an ABA EC50 of 137 µM.
For `P37L`, the ABA EC50 was 21.1 µM.
The ABA EC50 of `E147V` is reported as 3.62 µM.
With `T6I` the ABA EC50 was 5.65 µM.
`R24D` has an ABA EC50 of 66.4 µM.
For `I33M`, the ABA EC50 was 7.49 µM.
For `D65R`, the ABA EC50 was 4.64 µM.
`Y115L` has an ABA EC50 of 226 µM.
The ABA EC50 of `E38K` is reported as 21.6 µM.

Series 4 — target: CCNA1, cyclin fold, Cln2 fusion (human); method: yeast growth competition, sequencing; medium: yeast; notes: weak parent motif; reference: not given; direction: higher = stronger binding
Parent: E2F1 docking peptide (human); PPVKRRLDLETDH; partner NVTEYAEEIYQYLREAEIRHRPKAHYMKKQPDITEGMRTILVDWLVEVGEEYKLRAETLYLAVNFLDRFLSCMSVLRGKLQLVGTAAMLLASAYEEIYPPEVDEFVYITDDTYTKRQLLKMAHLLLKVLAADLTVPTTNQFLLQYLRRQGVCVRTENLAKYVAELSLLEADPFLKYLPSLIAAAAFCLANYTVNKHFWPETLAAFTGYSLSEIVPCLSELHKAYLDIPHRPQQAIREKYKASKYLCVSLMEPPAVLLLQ
For `V3T`, “normalised enrichment score” read 0.286.
For `H13M`, “normalised enrichment score” read 0.613.
`E10L` — result for “normalised enrichment score”: 0.508.
For `P2F`, “normalised enrichment score” read 0.612.
`P1N`: “normalised enrichment score” 0.649.
`H13P`: “normalised enrichment score” 0.816.
`R6N` — result for “normalised enrichment score”: 0.377.
`L7N`: “normalised enrichment score” 0.282.
For `R5H`, “normalised enrichment score” read 0.341.
`D8R` — result for “normalised enrichment score”: 0.374.
Under “normalised enrichment score”, `V3K` is recorded as 0.19.
Under “normalised enrichment score”, `L7T` is recorded as 0.418.
Under “normalised enrichment score”, `H13Y` is recorded as 0.617.
Under “normalised enrichment score”, `L7S` is recorded as 0.286.
`P2G` — result for “normalised enrichment score”: 0.439.
`R6L` — result for “normalised enrichment score”: 0.176.
Under “normalised enrichment score”, `R6P` is recorded as 0.13.
`R6E`: “normalised enrichment score” 0.414.
For `H13W`, “normalised enrichment score” read 0.2.
`P2N`: “normalised enrichment score” 0.404.
For `P2M`, “normalised enrichment score” read 0.0552.
`P2W`: “normalised enrichment score” 0.538.

A few entries again (series 1):
`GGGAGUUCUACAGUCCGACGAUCCUAGAUUUGACAUUACUUCCUGUAUCAUUUUACUGUAUUUUUGCAUGAUUCCUUGUAUUGCAUUUCUUUGCACAUAUUAUGGGCUUGUGACCCUAAACUUGCAGGCAAGAUGGAAUUCUCGGGUGCCAA`: “RBNS enrichment (R)” 7.02.
`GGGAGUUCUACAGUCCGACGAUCCAAAACUGACCAAGGCUAUUCAGCAGUGAACCAGUGACCAAAGAAUUAAUUACCCUCCGUUUCCCACAUCCCCACUCUCUAGGGGAUUAGCUUGUGCGUGUCAAAAGAAGUGGAAUUCUCGGGUGCCAA` — result for “RBNS enrichment (R)”: 1.08.
`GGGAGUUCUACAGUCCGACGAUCAGGGGCAAGGUACCCGCUGAGGUGUGUGGGCUGACUGGAGGUCCUGGAUCCCCCUACUGCUCCCAGGAAUUGGGCUCCUGACAGCAGUCUGCUACCACAACCCCAGGCGGUGGAAUUCUCGGGUGCCAA` — result for “RBNS enrichment (R)”: 0.566.
Under “RBNS enrichment (R)”, `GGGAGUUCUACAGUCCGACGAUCCUUUCUUUCUAGACUGGAUUAUGCUCACAUGCUCCCUUGCCCUGACAUUUUUGUAAAUUCUGUGCCCUUUGCUGUAGCUACACUUCAGAUUAAAGUAGGAGAAAGAAUGUUGGAAUUCUCGGGUGCCAA` is recorded as 0.196.
For `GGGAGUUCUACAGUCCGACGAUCAGCCUUCAUUUUUAACUCAAAUUGAUGCUCAGUAAAGGUCAAUGACAAUUUGUUCAAGGAAGUUCAUCUAAAAUAAUCUGGAGGCCUUGAAAAUGAUCCCUCUAAAAUGCUGGAAUUCUCGGGUGCCAA`, “RBNS enrichment (R)” read 0.765.
